Measurements of several laboratories.
A part holds a random share of what one study measured.

Series 1
Target: Interferon regulatory factor 7, full length, phosphomimetic (IRF7, Homo sapiens, UniProt Q92985, residues 1-503, S471D/S472D/S475D/S476D/S477D/S483D/S484D/S487D)
Sequence of UniProt Q92985 (whole entry, unmodified, looked up): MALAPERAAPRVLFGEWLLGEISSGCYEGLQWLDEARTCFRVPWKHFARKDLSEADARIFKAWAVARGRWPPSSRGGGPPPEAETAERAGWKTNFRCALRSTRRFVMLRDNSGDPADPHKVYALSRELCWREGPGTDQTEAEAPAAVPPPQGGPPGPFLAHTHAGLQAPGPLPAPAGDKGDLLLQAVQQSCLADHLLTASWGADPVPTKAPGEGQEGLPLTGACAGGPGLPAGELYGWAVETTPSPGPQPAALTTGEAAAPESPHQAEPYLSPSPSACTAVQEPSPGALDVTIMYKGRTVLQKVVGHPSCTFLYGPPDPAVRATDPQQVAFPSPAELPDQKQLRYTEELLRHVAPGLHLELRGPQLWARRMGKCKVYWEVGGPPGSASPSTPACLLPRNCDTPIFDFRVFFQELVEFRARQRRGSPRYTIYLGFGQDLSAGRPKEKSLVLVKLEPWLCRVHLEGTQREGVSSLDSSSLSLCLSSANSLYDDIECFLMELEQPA
Technique: protein-binding microarray
Molecule type: double-stranded DNA, one strand shown
Matrix: in vitro
Concentration: 2200 nM top
Notes: 60-bp whole probe
Together with: salmon DNA 0.4 mg/ml
Baseline: random background probes
Reading: higher = stronger binding
Shared flanks, not repeated: GCCTAGCAC … GTCTTGATTCGCTTGACGCTGCTG
Sequence | fitted relative affinity
CCCCCTTTTATATTGTAAGCGTGCTAG | 0.504 z-score
GACGAACTGGGGTTTAGAGACGTGCTA | 0.0518 z-score
TTACGACTGCTTTTCCTTTAGTGCTAG | 2.69 z-score
GACGGTATTGACTATCGGGACGTGCTA | -0.0145 z-score
TTAGATCTCGGTATCGGTTAGTGCTAG | 0.602 z-score
GAGGATTTCAGACTGGAGACGTGCTAG | -0.228 z-score
TTAGCTATCGGGACTGGGTTAGTGCTA | -0.313 z-score
CAGGGTTTCAGATGCGTGAGGTGCTAG | 0.141 z-score
TTGGGTTTCGGTCTCGGTTAGTGCTAG | 5.61 z-score
CAGCTTTTATCCCTGACAGAGTGCTAG | 0.735 z-score
GACGGACTGGGGAATCGGGACGTGCTA | -0.781 z-score
TTAGGACTCCTTTTCCTTTAGTGCTAG | 1.53 z-score
GACGATATCGGGTATTGAGACGTGCTA | 0.265 z-score

Series 2
Target: RING finger protein unkempt homolog, zinc fingers 1-6, SBP tag (UNK, Homo sapiens, UniProt Q9C0B0, residues 30-357)
Sequence of UniProt Q9C0B0 (30-357, looked up): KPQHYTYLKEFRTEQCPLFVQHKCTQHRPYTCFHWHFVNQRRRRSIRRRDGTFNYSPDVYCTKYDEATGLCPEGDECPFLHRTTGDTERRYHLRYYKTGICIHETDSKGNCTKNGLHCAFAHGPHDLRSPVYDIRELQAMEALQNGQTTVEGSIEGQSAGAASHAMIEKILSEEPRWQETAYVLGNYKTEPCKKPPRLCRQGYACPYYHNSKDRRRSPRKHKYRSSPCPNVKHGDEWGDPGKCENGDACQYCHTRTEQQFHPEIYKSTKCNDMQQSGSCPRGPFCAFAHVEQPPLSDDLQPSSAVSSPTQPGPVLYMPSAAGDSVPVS
Technique: RNA Bind-n-Seq
Molecule type: RNA
Matrix: in vitro
Concentration: 100 nM
Notes: RNA with constant flanks, vertebrate orthologous sites, ends assumed
Baseline: input RNA pool
Reading: higher = stronger binding
Sequence | bound/input enrichment [ratio]
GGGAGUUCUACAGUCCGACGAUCCUGCUGAUUCACUCAUUGGAAGAGCUGCGCACAUAGCUGUUCUUGAUUCAGAAAUAUUUUUAGAGAAAUUCUUUCUAGUUGCUGCCCUCAAAUAUUUUCAGUAGAAUAAAAAACAUUGUUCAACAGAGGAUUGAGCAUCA | 0.76
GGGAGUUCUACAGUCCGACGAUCUCUUUGUAUUUCCUUUAUUUCUACCUUCCUUAUUUUUUUUUCUUUUUCUUUUAUUUUUGGUAGUAGUUGUUACCCACGCCAUUUUACGUCUCCUUCACUGAAGGGCUAGAGUUUUAACUUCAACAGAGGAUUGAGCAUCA | 2.93
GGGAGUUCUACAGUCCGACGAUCCUGUGAGGGUCUACUGACCACUCACUGUUAUGUCUGAUAUCUAUAAACACUUUUUGUUCUUAGUCUUUUUCUUGUAUAAUUGAUGUUCUUUAAAAUUGUUAAUGUAUAACAGGGCUUAUGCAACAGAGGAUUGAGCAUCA | 0.539
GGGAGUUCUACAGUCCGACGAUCAACCCCAGUUUAUAUGUGCAUUAUUCACAUUCCUGUUUGUGUUUGGGGAAAAACGACAUUUUAGCCUUUUUUAAGGUUGUUGACUUAAUUUCCUGUUACUUGGCUGCAUGAAGUUGCCCUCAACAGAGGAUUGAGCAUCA | 0.276
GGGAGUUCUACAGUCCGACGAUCUUUUGUACAGGGAGGCCUUCUCUGUACUAAUUUGUUGUAGUUAUAAACCAAUUAGCAAAACAGCUUACAUUUGUAUUUAUUUUCUAUUGCAUACCUCUCUGCCCCAUGUUUUUCUCUUCACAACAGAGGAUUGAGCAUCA | 0.559
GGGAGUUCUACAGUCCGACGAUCUGAGGGAGAGAUUCCUGUGGUUUUUUAAUACUUAAUUUGUUUUCUUUAGAUAUUCCAGUAUGCCAUUUUUUUUUUCCAGUAUGCCAUUUUUGAUGGAACUGGUUUAUUGACAGUUCCUGGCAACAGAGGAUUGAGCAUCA | 1.86
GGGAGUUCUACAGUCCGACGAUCGGAAAGUUACAGAUCAGACACUGAAAGUAGGAGCACAGGAUCCUGGCUGUCAUCCUCUUUGAGGAAUAGAUGUACACCUCUCUUUUCCAGAAGAAGAAGAGAAGGGAGAGAUGAAUCCGCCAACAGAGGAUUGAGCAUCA | 0.416

Series 3
Target: Centromere-binding protein 1, full length, His-tagged (CBF1, Saccharomyces cerevisiae, UniProt P17106, residues 1-351)
Sequence of UniProt P17106 (whole entry, looked up): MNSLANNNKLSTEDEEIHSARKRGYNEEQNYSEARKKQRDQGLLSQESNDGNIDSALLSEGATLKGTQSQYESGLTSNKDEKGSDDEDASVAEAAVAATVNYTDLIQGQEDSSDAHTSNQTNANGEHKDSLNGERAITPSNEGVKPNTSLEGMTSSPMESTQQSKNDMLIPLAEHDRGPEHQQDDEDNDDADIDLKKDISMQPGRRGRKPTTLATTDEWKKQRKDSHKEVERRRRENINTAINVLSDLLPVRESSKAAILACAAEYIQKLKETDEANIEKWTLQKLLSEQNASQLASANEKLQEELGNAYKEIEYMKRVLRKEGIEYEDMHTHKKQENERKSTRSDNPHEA
Technique: competition protein-binding microarray
Molecule type: double-stranded DNA, one strand shown
Matrix: in vitro
Concentration: 2 µM
Notes: whole 60-bp probe, lowest competitor level
Together with: Pho4 competitor, 0.05 µM
Reading: higher = stronger binding
Sequence | fluorescence intensity
CATACCCAACCTTGCCACGTGGGTGAAGATATTTGTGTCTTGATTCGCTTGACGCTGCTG | 1070 a.u.
ACTGTTGAAAAAAAGCACGCTGCAGTTGCATCAGGGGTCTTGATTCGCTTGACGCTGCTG | 79.5 a.u.
AGGTTTACACAATCGCACGTGATGGTATATTTGCCAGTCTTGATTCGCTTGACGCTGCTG | 4610 a.u.
TGTGGATCATATCTCATATCTTCACATATACGAACAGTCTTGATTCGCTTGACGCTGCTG | 72.3 a.u.
AACGCCATGGCCTGTCACCTGATGCATTTATTCAACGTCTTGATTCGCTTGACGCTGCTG | 1060 a.u.
GTACTGCATCTTATTCCCGTGCCAGGGTCTCTGGGTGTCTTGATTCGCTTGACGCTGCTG | 88.8 a.u.
AAAGCGGTAATTTTTCACGTGTTGTCAAATATCTATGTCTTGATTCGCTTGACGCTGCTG | 1660 a.u.
AAAGCGGTAATTTGTCACGAAACTTCACATATCTATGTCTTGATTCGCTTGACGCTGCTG | 105 a.u.
CGTCCTAGTGATTGTTATGTGGGTGCCATGAGGAAGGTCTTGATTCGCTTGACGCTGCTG | 92 a.u.
AGAGAGGCTTTGAAACATGTGATTGCTGTTCGCGATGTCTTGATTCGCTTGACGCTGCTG | 580 a.u.
AAGATATTGTTCGACCATGTGTTAAATGCCAGTAATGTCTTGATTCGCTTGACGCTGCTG | 169 a.u.
GGTGTAACATTCAGATGCGTGCGATATTTATTCTCTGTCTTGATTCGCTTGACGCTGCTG | 85.9 a.u.

Further values, each from its own experiment
Substance | target | test | test system | conditions | scale | endpoint | value
PhoQ, residues 284 288 289 292 302 303 SLSVQF | PhoP, residues 12 14 15 18 19 HHYTI (Escherichia coli, UniProt P23836) | Sort-seq, refers to: YFP reporter | E. coli | PhoQ-PhoP variant library, together with: 10 µM Mg2+ | baseline: high Mg2+ state, higher = stronger signaling | fold induction | 7.67
